{"data": "Measured values pooled from the literature", "note": "Parts stem from different laboratories: compare values within a part only."}
{"data": "Series 1", "target": "Replicase polyprotein 1ab, polymerase (rep, Severe acute respiratory syndrome coronavirus 2, UniProt P0DTD1)", "read-out": "enzyme activity", "action": "inhibitor", "concentration": "20 µM"}
{"Structure (SMILES)": "CN1C(=O)N(c2cc(Cl)cc(Cl)c2)C(=O)[C@]12CN(c1ccc(C(=O)O)cn1)C[C@H]2c1ccc(C#N)cc1", "inhibition": "-3.68%"}
{"Structure (SMILES)": "O=C(Nc1ccccc1)N[C@@H]1C[C@@H](C(=O)O)Nc2cc(Cl)cc(Cl)c21", "inhibition": "3.91%"}
{"Structure (SMILES)": "Nc1nccc(-c2c(-c3ccc(F)cc3)ncn2C2CCCCC2)n1", "inhibition": "0.06%"}
{"Structure (SMILES)": "CS(=O)(=O)n1cc2c(n1)CN([C@H]1CO[C@H](c3cc(F)ccc3F)[C@@H](N)C1)C2", "inhibition": "-3.31%"}
{"Structure (SMILES)": "C=CC(=O)Nc1ccc2ncnc(Nc3ccc(OCc4cccc(F)c4)c(Cl)c3)c2c1", "inhibition": "4.3%"}
{"Structure (SMILES)": "CC(C)CCN1c2nc(Nc3cc(F)c(O)c(F)c3)ncc2N(C)C(=O)C1C (centres unmarked)", "inhibition": "-1.61%"}
{"Structure (SMILES)": "N#CCC(=O)c1ccccc1", "inhibition": "4%"}
{"Structure (SMILES)": "COc1cc(-c2ccc(/N=N/c3ccc4c(S(=O)(=O)O)cc(S(=O)(=O)O)c(N)c4c3O)c(OC)c2)ccc1/N=N/c1ccc2c(S(=O)(=O)O)cc(S(=O)(=O)O)c(N)c2c1O", "inhibition": "99.9%"}
{"Structure (SMILES)": "CCOc1ccc(-c2ccc(Cn3c(CC(C)(C)C(=O)O)c(SC(C)(C)C)c4cc(OCc5ccc(C)cn5)ccc43)cc2)cn1", "inhibition": "7.14%"}
{"Structure (SMILES)": "Cc1ccc(C)c(OCCCC(C)(C)C(=O)O)c1", "inhibition": "27.7%"}
{"Structure (SMILES)": "O=C1c2cccnc2OC[C@@H]2CCCN12", "inhibition": "-4.15%"}
{"Structure (SMILES)": "Cc1cc2c(F)c(Oc3ncnn4cc(OC[C@@H](C)OC(=O)[C@H](C)N)c(C)c34)ccc2[nH]1", "inhibition": "15.8%"}
{"Structure (SMILES)": "C[C@]12CC[C@H](O)CC1=CC[C@@H]1[C@@H]2CC[C@]2(C)C(n3cnc4ccccc43)=CC[C@@H]12", "inhibition": "-2.97%"}
{"Structure (SMILES)": "Cc1cccc(C)c1-n1c(=O)c2cnc(Nc3ccc(N4CCN(C)CC4)cc3)nc2n2c3ccccc3nc12", "inhibition": "6.7%"}
{"Structure (SMILES)": "Cc1csc2c(N[C@@H](C)CN3CCN(S(=O)(=O)c4ccc(Cl)c(Cl)c4)CC3)ncnc12", "inhibition": "-2.46%"}
{"Structure (SMILES)": "O=C(O)c1cnn(-c2nc3cc(OC(F)(F)F)c(Cl)cc3[nH]2)c1", "inhibition": "-3.49%"}
{"Structure (SMILES)": "CN(C)CC(c1ccc(O)cc1)C1(O)CCCCC1 (centres unmarked)", "inhibition": "-4.11%"}
{"Structure (SMILES)": "Cc1cc(-c2nc3cc(F)ccc3s2)ccc1NC(=O)[C@@H](N)CCCCN", "inhibition": "-1.53%"}
{"Structure (SMILES)": "O=C(Nc1cc2cc[nH]c2cn1)c1ccccc1", "inhibition": "2.27%"}
{"Structure (SMILES)": "CN=C(NS(=O)(=O)c1ccc(Cl)cc1)N1C[C@H](c2ccccc2)C(c2ccc(Cl)cc2)=N1 (racemic)", "inhibition": "-2.23%"}
{"Structure (SMILES)": "Cc1c(C)c(NCC(=O)N(C)C2CCN(Cc3ccc(C(N)=O)cc3)CC2)c(C)c(C)c1N", "inhibition": "3.2%"}
{"data": "Series 2", "target": "Phosphate system positive regulatory protein PHO4, full length, GST-tagged (PHO4, Saccharomyces cerevisiae, UniProt P07270, residues 1-312)", "method": "competition protein-binding microarray", "form": "double-stranded DNA, one strand shown", "medium": "in vitro", "concentration": "2 µM", "notes": "whole 60-bp probe, lowest competitor level", "together with": "Cbf1 competitor, 0.05 µM", "reading": "higher = stronger binding", "constant ends, left off below": "… GTCTTGATTCGCTTGACGCTGCTG", "Target sequence (chain)": "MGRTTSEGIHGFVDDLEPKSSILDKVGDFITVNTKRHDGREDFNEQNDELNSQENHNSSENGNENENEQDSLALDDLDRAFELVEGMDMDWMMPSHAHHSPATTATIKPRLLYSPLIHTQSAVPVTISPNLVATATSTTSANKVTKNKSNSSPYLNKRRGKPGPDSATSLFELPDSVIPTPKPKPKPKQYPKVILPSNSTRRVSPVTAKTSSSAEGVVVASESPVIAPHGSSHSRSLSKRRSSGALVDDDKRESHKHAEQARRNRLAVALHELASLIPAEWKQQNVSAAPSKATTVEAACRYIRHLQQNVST"}
{"Sequence": "TGGGCTCACCCGCGGGTCGTGATGGCGATTCAGCAA", "fluorescence intensity [a.u.]": 4710}
{"Sequence": "GTATTTTGTAAACAGCACGTGATGGACAGGGCGCAG", "fluorescence intensity [a.u.]": 17500}
{"Sequence": "GGCTCTGCCGAGTTCCAGGTGACGCTGGTGGTACGA", "fluorescence intensity [a.u.]": 2950}
{"Sequence": "ATATCGTCGAATTGTCATGTGATGAAGCCAATTTAT", "fluorescence intensity [a.u.]": 6090}
{"Sequence": "AAATCTTTGGTTGACAACATGATAACTGGTGTCCCC", "fluorescence intensity [a.u.]": 4220}
{"Sequence": "CGTCCTAGTGATTGCCCAGTGGGTGCCATGAGGAAG", "fluorescence intensity [a.u.]": 6250}
{"Sequence": "GAGGTTTACTCCAGTTTCGTGGGACTGTGCATTTTC", "fluorescence intensity [a.u.]": 3910}
{"Sequence": "TTACGCAGCTTTCGGCACGTGAGTACGGAAACACCA", "fluorescence intensity [a.u.]": 17300}
{"data": "Series 3", "target": "TAR DNA-binding protein 43, full length, His tag (TARDBP, Homo sapiens, UniProt Q13148, residues 1-414)", "method": "RNA Bind-n-Seq", "form": "RNA", "medium": "in vitro", "concentration": "20 nM", "notes": "6-mer, flanks averaged, single round", "together with": "150 mM LiCl", "reference": "input library", "reading": "higher = stronger binding"}
{"Sequence": "UGACCA", "6-mer enrichment (R)": 0.88}
{"Sequence": "CGUCAC", "6-mer enrichment (R)": 0.87}
{"Sequence": "CUCUAC", "6-mer enrichment (R)": 0.849}
{"Sequence": "CGGUUU", "6-mer enrichment (R)": 1.01}
{"Sequence": "GCGUGG", "6-mer enrichment (R)": 1.35}
{"data": "Series 4", "target": "Signal transducer and activator of transcription 1-alpha/beta, full length (STAT1, Homo sapiens, UniProt P42224, residues 1-750)", "method": "protein-binding microarray", "form": "hairpin DNA", "medium": "in vitro", "concentration": "not given", "notes": "whole hairpin DNA, median over replicate spots", "reference": "not given", "reading": "higher = stronger binding", "UniProt P42224, sequence (whole entry, looked up)": "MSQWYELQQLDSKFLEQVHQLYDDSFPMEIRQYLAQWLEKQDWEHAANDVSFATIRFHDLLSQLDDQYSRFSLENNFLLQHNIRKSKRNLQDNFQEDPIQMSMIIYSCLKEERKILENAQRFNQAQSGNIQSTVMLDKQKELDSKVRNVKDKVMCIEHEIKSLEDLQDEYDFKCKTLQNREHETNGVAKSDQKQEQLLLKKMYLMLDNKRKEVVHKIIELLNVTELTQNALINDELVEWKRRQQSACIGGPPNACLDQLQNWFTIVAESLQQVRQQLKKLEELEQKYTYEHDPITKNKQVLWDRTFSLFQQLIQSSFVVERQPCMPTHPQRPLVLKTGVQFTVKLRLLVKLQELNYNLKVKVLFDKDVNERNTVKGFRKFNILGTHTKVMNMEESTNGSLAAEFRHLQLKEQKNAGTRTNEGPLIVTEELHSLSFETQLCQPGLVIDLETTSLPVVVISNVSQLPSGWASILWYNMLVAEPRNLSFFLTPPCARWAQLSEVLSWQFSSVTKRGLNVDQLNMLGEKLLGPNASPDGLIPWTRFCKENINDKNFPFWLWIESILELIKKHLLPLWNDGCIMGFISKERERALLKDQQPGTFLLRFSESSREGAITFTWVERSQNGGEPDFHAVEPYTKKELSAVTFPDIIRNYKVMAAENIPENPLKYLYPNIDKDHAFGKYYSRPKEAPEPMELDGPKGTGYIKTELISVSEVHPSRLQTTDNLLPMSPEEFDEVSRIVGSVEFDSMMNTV"}
{"Sequence": "GAGGCCTTCACCGGAAGCCTCCTGGCTTCCGGTGAAGGCCTCACACTCTTTCCCTACACG (5mC at 9)", "median fluorescence": "1250 a.u."}
{"Sequence": "GAGGCCTTTCCCCAAAGCCTCCTGGCTTTGGGGAAAGGCCTCACACTCTTTCCCTACACG (5mC at 13)", "median fluorescence": "973 a.u."}
{"Sequence": "GAGGCCTTTCCGGGAAGCCTCCTGGCTTCCCGGAAAGGCCTCACACTCTTTCCCTACACG", "median fluorescence": "15500 a.u."}
{"data": "Series 5", "cell line": "HEK-293T", "organism": "VSV pseudotyped with SARS-CoV-2 spike", "concentration": "10 µM", "time": "16 h"}
{"Structure (SMILES)": "CCOC(=O)N1CCC(=C2c3ccc(Cl)cc3CCc3cccnc32)CC1", "pseudovirus infection [%]": 66.7}
{"Structure (SMILES)": "CC(C)NCC(O)COc1ccc(CCOCC2CC2)cc1 (centres unmarked)", "pseudovirus infection [%]": 128}
{"Structure (SMILES)": "c1ccc([C@H]2CN3CCSC3=N2)cc1", "pseudovirus infection [%]": 75.1}
{"data": "Series 6", "target": "Replicase polyprotein 1ab, main protease (rep, Severe acute respiratory syndrome coronavirus 2, UniProt P0DTD1)", "read-out": "enzyme activity", "action": "inhibitor", "concentration": "20 µM"}
{"Structure (SMILES)": "Cc1cc(C)cc(N2C(=O)CC(Sc3nnc[nH]3)C2=O)c1 (centres unmarked)", "inhibition [%]": 15.9}
{"Structure (SMILES)": "COc1cc(CC2NCCc3cc(O)c(O)cc32)cc(OC)c1OC (centres unmarked)", "inhibition [%]": -5.56}
{"Structure (SMILES)": "O=C(O)C(O)Cc1ccc(O)c(O)c1 (centres unmarked)", "inhibition [%]": -9.07}
{"Structure (SMILES)": "Oc1cc2c(cc1C(c1ccc(C(F)(F)F)cc1)N1CCOCC1)OCO2 (centres unmarked)", "inhibition [%]": 98.7}
{"note": "Repeated from above (series 1):"}
{"Structure (SMILES)": "CCOc1ccc(-c2ccc(Cn3c(CC(C)(C)C(=O)O)c(SC(C)(C)C)c4cc(OCc5ccc(C)cn5)ccc43)cc2)cn1", "inhibition": "7.14%"}
{"Structure (SMILES)": "Cc1ccc(C)c(OCCCC(C)(C)C(=O)O)c1", "inhibition": "27.7%"}
{"Structure (SMILES)": "O=C1c2cccnc2OC[C@@H]2CCCN12", "inhibition": "-4.15%"}
{"Structure (SMILES)": "Cc1cc2c(F)c(Oc3ncnn4cc(OC[C@@H](C)OC(=O)[C@H](C)N)c(C)c34)ccc2[nH]1", "inhibition": "15.8%"}
{"Structure (SMILES)": "C[C@]12CC[C@H](O)CC1=CC[C@@H]1[C@@H]2CC[C@]2(C)C(n3cnc4ccccc43)=CC[C@@H]12", "inhibition": "-2.97%"}
{"Structure (SMILES)": "Cc1cccc(C)c1-n1c(=O)c2cnc(Nc3ccc(N4CCN(C)CC4)cc3)nc2n2c3ccccc3nc12", "inhibition": "6.7%"}
{"Structure (SMILES)": "Cc1csc2c(N[C@@H](C)CN3CCN(S(=O)(=O)c4ccc(Cl)c(Cl)c4)CC3)ncnc12", "inhibition": "-2.46%"}
